# Published values of several laboratories.
# Protocols differ between the studies behind these lines. Several values in a cell are separate wells, animals, samples, runs or records.
# PIK3CA E545A: Phosphatidylinositol 4,5-bisphosphate 3-kinase catalytic subunit alpha isoform (PIK3CA, Homo sapiens, UniProt P42336, E545A)
Structure (SMILES),target,assay,setting,quantity,value
N=c1c[n+](N2CCOCC2)[n-]o1,"SIRT3 (Homo sapiens, UniProt Q9NTG7)","enzyme activity, inhibitor",,KI (inactivation),7 µM
C1=C/COCc2cc(ccc2OCCN2CCCC2)Nc2nccc(n2)-c2cccc(c2)COC/1,PIK3CA E545A,binding,0.1 µM,remaining binding,45%
Cc1cc2c(cc1N1C(=O)c3cccc4c(Cl)ccc(c34)C1=O)n(C)c(=O)n2C,"Transcription initiation factor TFIID subunit 1, BD2 (TAF1, Homo sapiens, UniProt P21675)","thermal stability, DSF",10 µM,ΔTm,2.2 °C
COc1cc2c(CCNC(C)=O)c(I)[nH]c2cc1[N+](=O)[O-],"MTNR1B (Homo sapiens, UniProt P49286)","GTPγS binding, agonist, radiometric",cell membranes,Emax,103%
C=CC(=O)N1CCC(COCC(=O)N2CCN(c3nc(-c4cnc(N)nc4C(F)F)nc(N4CCOC[C@@H]4C)n3)CC2)CC1,"Tyrosine-protein kinase ABL1, phosphorylated (ABL1, Homo sapiens, UniProt P00519, Q252H)","binding, competition with immobilised ligand",1 µM,remaining binding,72%
Cc1cc([C@@H](C)Nc2ccccc2C(=O)O)c2nc(N3CCC(F)(F)CC3)c(C#N)c(=O)n2c1,"PLK1 (Homo sapiens, UniProt P53350)","binding, competition with immobilised ligand",10 µM,remaining binding,100%
Nc1ncnc2occ(-c3ccc(NC(=O)Nc4cc(C(F)(F)F)ccc4F)cc3)c12,"FLT3 (Homo sapiens, UniProt P36888, D835Y)","cell-free assay, inhibitor",20 µM,remaining signal,5.7%
CNc1ncc2c(/C=C/C(=O)N3CCC(OC)CC3)nn(Cc3cccc(C(F)(F)F)c3)c2n1,"MAP3K20 (Homo sapiens, UniProt Q9NYL2)","enzyme activity, inhibitor, radiometric",1 µM,remaining activity,102%
NC/C(=C\F)COc1cccc(Cn2c(=S)[nH]c(=O)c3[nH]cnc32)c1,"ADORA2A (Homo sapiens, UniProt P29274)","ligand displacement, radioligand",10 µM,inhibition,< 50%
COc1ccc(NC(=O)Nc2ccccc2-c2nc(-c3ccoc3)n[nH]2)cc1,"RET (Homo sapiens, UniProt P07949)","enzyme activity, inhibitor, radiometric",10 µM,remaining activity,53.6%
CC[C@H](C)[C@H](NC(=O)[C@H](CCC(N)=O)NC(=O)[C@H](CC(C)C)NC(=O)[C@H](CCSC)NC(=O)[C@H](CCCCN)NC(=O)[C@H](CO)NC(=O)[C@H](CO)NC(=O)[C@H](CCSC)NC(=O)[C@H](CC(C)C)NC(=O)[C@H](CC(N)=O)NC(=O)[C@@H](NC(=O)[C@@H](NC(=O)[C@H](CO)NC(=O)[C@H](CC(C)C)NC(=O)[C@H](CS)NC(=O)[C@H](CCCNC(=N)N)NC(=O)[C@H](CC(=O)O)NC(=O)[C@H](Cc1c[nH]c2ccccc12)NC(=O)[C@H](Cc1ccccc1)NC(=O)[C@H](C)NC(=O)[C@H](CCC(=O)O)NC(=O)[C@@H](N)CCCCN)C(C)C)[C@@H](C)CC)C(=O)N[C@@H](CC(N)=O)C(=O)N[C@@H](C)C(=O)O,"MAPK3 (Homo sapiens, UniProt P27361)","enzyme activity, inhibitor, radiometric","1 µM, 20 min",remaining activity,100%
COc1ccc2[nH]cc(CCNC(C)=O)c2c1I,"MTNR1A (Homo sapiens, UniProt P48039)","GTPγS binding, agonist, radiometric",cell membranes,Emax,33%
COc1cc(-c2cncc3c2CN(C)Cc2cc(N4CCNCC4)ccc2-3)cc(OC)c1OC,"STK4 (Homo sapiens, UniProt Q13043)","enzyme activity, inhibitor",1 µM,remaining activity,97%
Cc1ccc(C(=O)Nc2ccc(CN3CCN(C)CC3)c(C(F)(F)F)c2)cc1C#Cc1cnc2cccnn12,"CDK4 (Homo sapiens, UniProt P11802)","enzyme activity, inhibitor",23.5 nM,activity vs control,98% and 94%
COc1ccc2oc(-c3ccc4nc(N)oc4c3)c/c(=N\c3ccccc3NC(=O)CCN)c2c1,"SRC (Homo sapiens, UniProt P12931)","cell-free assay, inhibitor",1 µM,remaining signal,98%
CCCCC(=O)Nc1ccc(-c2ccc3ncn(CCC)c(=O)c3c2)cn1,PIK3CA E545A,"binding, competition with immobilised ligand",0.5 µM,remaining binding,97%
COc1cc(CNC(=O)CC(c2ccc(Cl)cc2)C(C)C)cc(Br)c1OC (centres unmarked),"Replicase polyprotein 1ab, papain-like protease (rep, Porcine epidemic diarrhea virus, UniProt P0C6Y4)","enzyme activity, inhibitor, FRET",10 µM,inhibition,10.7%

# Some of these lines once more:
Structure (SMILES),target,assay,setting,quantity,value
Cc1cc2c(cc1N1C(=O)c3cccc4c(Cl)ccc(c34)C1=O)n(C)c(=O)n2C,"Transcription initiation factor TFIID subunit 1, BD2 (TAF1, Homo sapiens, UniProt P21675)","thermal stability, DSF",10 µM,ΔTm,2.2 °C
